Published values gathered from unrelated publications.
Compare with care: the assays were run in different laboratories. Values joined by “and” are separate records of one study, mostly repeats; a detail may differ. ± marks the error that the study gave.
Chain of UniProt Q15102 (whole entry, looked up): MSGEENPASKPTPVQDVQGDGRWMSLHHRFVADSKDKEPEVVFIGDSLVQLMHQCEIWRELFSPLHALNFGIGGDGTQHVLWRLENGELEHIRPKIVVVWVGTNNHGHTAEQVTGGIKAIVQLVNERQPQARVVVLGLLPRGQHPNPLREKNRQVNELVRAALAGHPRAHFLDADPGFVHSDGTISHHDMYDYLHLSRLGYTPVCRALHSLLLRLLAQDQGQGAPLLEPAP
Chain of UniProt Q15303 (whole entry, looked up): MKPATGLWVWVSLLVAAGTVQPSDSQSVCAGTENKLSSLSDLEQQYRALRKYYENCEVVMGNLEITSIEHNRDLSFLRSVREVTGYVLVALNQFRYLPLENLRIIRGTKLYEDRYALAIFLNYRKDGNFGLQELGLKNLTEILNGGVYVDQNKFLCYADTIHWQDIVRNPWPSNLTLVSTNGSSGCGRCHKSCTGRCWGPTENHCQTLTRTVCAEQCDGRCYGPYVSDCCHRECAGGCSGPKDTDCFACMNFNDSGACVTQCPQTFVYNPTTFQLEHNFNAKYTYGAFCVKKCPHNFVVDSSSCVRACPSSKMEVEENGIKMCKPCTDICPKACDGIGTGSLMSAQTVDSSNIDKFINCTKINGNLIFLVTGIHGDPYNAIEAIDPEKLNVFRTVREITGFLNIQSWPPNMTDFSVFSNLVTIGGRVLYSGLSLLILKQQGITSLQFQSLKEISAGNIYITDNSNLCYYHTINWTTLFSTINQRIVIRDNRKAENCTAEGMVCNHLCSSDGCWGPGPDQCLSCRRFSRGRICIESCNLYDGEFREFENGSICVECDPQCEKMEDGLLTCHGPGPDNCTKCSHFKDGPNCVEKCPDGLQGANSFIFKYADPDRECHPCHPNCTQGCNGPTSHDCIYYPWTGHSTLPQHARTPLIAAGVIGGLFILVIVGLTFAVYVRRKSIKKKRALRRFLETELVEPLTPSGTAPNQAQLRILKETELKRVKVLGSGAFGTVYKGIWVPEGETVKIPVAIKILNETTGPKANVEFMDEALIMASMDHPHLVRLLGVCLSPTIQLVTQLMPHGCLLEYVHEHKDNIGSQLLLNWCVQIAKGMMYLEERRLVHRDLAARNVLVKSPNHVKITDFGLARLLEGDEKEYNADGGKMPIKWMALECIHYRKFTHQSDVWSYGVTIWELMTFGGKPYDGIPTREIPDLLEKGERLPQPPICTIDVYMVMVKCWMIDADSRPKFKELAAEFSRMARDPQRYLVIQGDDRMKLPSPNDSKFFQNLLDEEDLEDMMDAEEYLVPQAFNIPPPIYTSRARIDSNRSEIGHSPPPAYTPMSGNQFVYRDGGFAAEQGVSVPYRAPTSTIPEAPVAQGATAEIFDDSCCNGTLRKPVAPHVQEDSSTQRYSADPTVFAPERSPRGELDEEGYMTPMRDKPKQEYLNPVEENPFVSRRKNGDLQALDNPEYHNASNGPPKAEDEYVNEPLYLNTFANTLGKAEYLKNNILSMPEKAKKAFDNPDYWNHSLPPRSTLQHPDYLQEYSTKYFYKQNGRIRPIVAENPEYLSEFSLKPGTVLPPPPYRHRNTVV
Chain of UniProt P45985 (whole entry, looked up): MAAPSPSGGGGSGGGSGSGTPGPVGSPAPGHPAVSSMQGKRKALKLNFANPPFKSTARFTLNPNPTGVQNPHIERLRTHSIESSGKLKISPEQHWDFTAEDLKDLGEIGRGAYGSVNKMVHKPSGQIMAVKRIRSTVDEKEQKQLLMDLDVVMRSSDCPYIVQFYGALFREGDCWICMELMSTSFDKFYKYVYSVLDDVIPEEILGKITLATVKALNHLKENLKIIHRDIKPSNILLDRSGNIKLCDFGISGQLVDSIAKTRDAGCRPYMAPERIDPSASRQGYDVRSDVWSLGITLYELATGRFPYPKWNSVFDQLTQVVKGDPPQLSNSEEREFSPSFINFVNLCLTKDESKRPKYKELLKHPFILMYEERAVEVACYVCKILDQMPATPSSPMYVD

| SMILES | target or system | assay | test system | setting | how to read | quantity | result |
| --- | --- | --- | --- | --- | --- | --- | --- |
| COc1cc2c(Oc3ccc4[nH]c(C)cc4c3F)ccnc2cc1OCC1(N)CC1 | – | – | paediatric recurrent refractory sarcoma | 10 mg | – | grade 1 or 2 Hematochezia | 0% |
| CC(C)(C)NCc1ccc(Nc2ccnc3cc(Cl)ccc23)cc1O | 293T-ACE2 | – | – | 40 (unit not given) | – | CC50 | > 2500 nM |
| CC(C)(c1ccc(O)cc1)c1ccc(O)cc1 | HepG2 spheroids, dissociated | annexin V-FITC/PI flow cytometry | – | 0.01 µM, 96 h | – | early apoptotic cells | 6.19 ± 3.02% |
| C[C@H](NC(=O)[C@H](Cc1ccc(O)cc1)NC(=O)[C@H](CCCNC(=N)N)NC(=O)[C@H](CCCNC(=N)N)NC(=O)[C@H](CCCNC(=N)N)NC(=O)[C@@H](N)CCCNC(=N)N)C(=O)N[C@@H](CCCNC(=N)N)C(=O)N1CCC[C@H]1C(=O)N[C@@H](Cc1ccc(O)cc1)C(=O)N[C@@H](Cc1ccc(O)cc1)C(=O)N[C@@H](CCCNC(=N)N)C(=O)N[C@@H](CCCNC(=N)N)C(=O)N[C@@H](CCCNC(=N)N)C(=O)O | DF-1 | – | – | 5 µM, 24 h | reference: untreated cells | viability | 105.9 ± 0.14% |
| COC(=O)[C@@H]1[C@@H](c2ccccc2)[C@]2(c3ccc(OC)cc3)Oc3cc(OC)cc(OC)c3[C@@]23N=C(C)N[C@@]13O | transfected HepG2 | MTT | – | 24 h | – | CC50 | 97.1 nM |
| N=C(N)NCCC[C@H](NC(=O)[C@H](Cc1c[nH]c2ccccc12)NC(=O)[C@H](CCCNC(=N)N)NC(=O)[C@H](Cc1c[nH]c2ccccc12)NC(=O)[C@H](Cc1c[nH]c2ccccc12)NC(=O)[C@H](Cc1c[nH]c2ccccc12)NC(=O)[C@H](CCCNC(=N)N)NC(=O)[C@H](Cc1c[nH]c2ccccc12)NC(=O)[C@@H](N)CCCNC(=N)N)C(N)=O | HD11 macrophages | – | – | – | – | LC50 | > 512 µM |
| O=C(c1ccc(Cl)cc1)N1CCN2C(=O)N(OC(=O)N3CCOc4ccccc43)C(=O)C2C1 (stereo not drawn) | Platelet-activating factor acetylhydrolase IB subunit alpha1 (Homo sapiens, UniProt Q15102) | enzyme activity, inhibitor, MS-based ABPP | SW-620 conditioned medium | 10 µM, 1 h, 37 °C | reference: compound over DMSO, lower = stronger inhibition | median ratio | 1.09 |
| CN1CC[C@@H](c2c(O)cc(O)c3c(=O)cc(-c4ccc(C(F)(F)F)cc4Cl)oc23)[C@@H]1CO | – | item: Vomiting | B-cell malignancies or AML | oral, 100 mg, continuous dosing | – | patients with adverse event | 12.5% |
| Nc1cnn(-c2ccccc2)c(=O)c1Cl | HEK293-H PPARγ-UAS-bla cells | cell confluency | – | 24 h, nominal concentration | reference: baseline IC10 over IC10 | toxic ratio | 1.71 |
| CC[C@H](C)[C@H](NC(=O)[C@@H](N)CC(N)=O)C(=O)N1CCC[C@H]1C(=O)N1CCC[C@H]1C(=O)N[C@@H](CC(C)C)C(=O)N[C@H](C(=O)N[C@@H](CCC(N)=O)C(=O)N[C@H](C(=O)N1CCC[C@H]1C(=O)N[C@H](C(=O)N[C@H](C(=O)N[C@H](C(=O)N1CCC[C@H]1C(=O)N1CCC[C@H]1C(=O)N[C@@H](Cc1ccccc1)C(=O)N[C@@H](CC(C)C)C(=O)N[C@@H](CCC(N)=O)C(=O)N1CCC[C@H]1C(=O)N[C@@H](CCC(=O)O)C(=O)O)C(C)C)C(C)C)C(C)C)[C@@H](C)O)[C@@H](C)O | Caco-2 monolayers | – | – | 10 µM, 60 min, 37 °C | – | transport | 0.71 ± 0.17% |
| Cc1cc(O)ccc1Cl | SH-SY5Y | cell viability, propidium iodide staining | – | 24 h, nominal concentration | – | IC10 | 716 µM |
| Nc1nc(CCc2ccccc2)c(Br)c(=O)[nH]1 | HEL human embryonic lung fibroblasts | cell morphology alteration | – | – | – | minimum cytotoxic concentration | > 100 µM |
| COc1ccc(N2C(=O)N(c3c(C)cccc3Cl)Cc3cnc(Nc4ccc(C5CCN(C)CC5)cc4OC)nc32)nc1 | MAP2K4 (Homo sapiens, UniProt P45985) | kinase activity | – | 0.5 µM | – | inhibition | 2.46% |
| CC[C@H](C)[C@H](NC(=O)[C@H](Cc1ccccc1)NC(=O)[C@H](CCC(=O)O)NC(=O)[C@H](CCCNC(=N)N)NC(=O)[C@H](C)NC(=O)[C@H](C)NC(=O)[C@H](CCC(N)=O)NC(=O)[C@H](CCC(=O)O)NC(=O)[C@H](CCC(=O)O)NC(=O)[C@H](CC(C)C)NC(=O)[C@H](Cc1ccc(O)cc1)NC(=O)[C@H](CO)NC(=O)[C@H](CO)NC(=O)[C@@H](NC(=O)[C@H](CC(=O)O)NC(=O)[C@H](CO)NC(=O)[C@@H](NC(=O)[C@H](Cc1ccccc1)NC(=O)[C@@H](NC(=O)CNC(=O)[C@H](CCC(=O)O)NC(=O)[C@H](C)NC(=O)CCc1c[nH]cn1)[C@@H](C)O)[C@@H](C)O)C(C)C)C(=O)N[C@@H](C)C(=O)N[C@@H](Cc1c[nH]c2ccccc12)C(=O)N[C@@H](CC(C)C)C(=O)N[C@H](C(=O)N[C@@H](CCCNC(=N)N)C(=O)NCC(=O)N[C@@H](CCCNC(=N)N)C(=O)N[C@@H](CCCCNC(=O)COCCOCCNC(=O)COCCOCCNC(=O)CC[C@H](NC(=O)CCCCCCCCCCCCCCCCC(=O)O)C(=O)O)C(=O)NCC(=O)NCC(=O)N[C@@H](CO)C(=O)N[C@@H](CCCCNc1c(NCCCCCN(O)C(=O)CCC(=O)NCCCCCN(O)C(=O)CCC(=O)NCCCCCN(O)C(C)=O)c(=O)c1=O)C(=O)O)C(C)C [zirconium-89 labelled] | – | – | rat, spleen | iv, 3 nmol/kg, 168 h, ex vivo | – | tissue uptake | 0.53 %ID/g |
| Cc1cc(C(C)(C)c2ccc(O)c(C)c2)ccc1O | HepG2 spheroids, dissociated | annexin V-FITC/PI flow cytometry | – | 40 µM, 24 h | – | viable cells | 68.2 ± 4.51% |
| CC(C)[C@H](NC(=O)[C@H](CCCNC(=N)N)NC(=O)[C@H](Cc1c[nH]c2ccccc12)NC(=O)[C@H](CCCNC(=N)N)NC(=O)[C@H](Cc1c[nH]c2ccccc12)NC(=O)[C@H](Cc1c[nH]c2ccccc12)NC(=O)[C@H](Cc1c[nH]c2ccccc12)NC(=O)[C@H](CCCNC(=N)N)NC(=O)[C@H](Cc1c[nH]c2ccccc12)NC(=O)[C@H](CCCNC(=N)N)NC(=O)CN)C(N)=O | HD11 macrophages | – | – | – | – | LC50 | > 512 µM |
| O=S(=O)(O)C(F)(F)C(F)(F)C(F)(F)C(F)(F)C(F)(F)C(F)(F)C(F)(F)C(F)(F)F | hTERT-RPTEC parental | – | – | concentration not given, 96-well plate | – | LDH release | 28.8 mU/mL and 17.1 mU/mL and 26.1 mU/mL and 26.6 mU/mL |
| C[C@H]1CN(c2n[nH]c3nc(N[C@H]4CC[C@H](NS(=O)(=O)CCC(F)(F)F)CC4)ncc23)CCO1 | ERBB4 (Homo sapiens, UniProt Q15303) | inhibitor, Kinobeads competition profiling | – | 0.16 µM | reference: vehicle | relative abundance | 1.06 |
| CO[C@H]1C[C@@H]2CC[C@@H](C)[C@@](O)(O2)C(=O)C(=O)N2CCCC[C@H]2C(=O)O[C@H]([C@H](C)C[C@@H]2CC[C@@H](OC(=O)NCCOCCOCCOCCOCCOCCOCCOCCOCCC(=O)N3CCc4cc(Cn5nc(-c6ccc7oc(N)nc7c6)c6c(N)ncnc65)ccc4C3)[C@H](OC)C2)C[C@@H](O)[C@H](C)/C=C(\C)[C@@H](O)[C@@H](OC)C(=O)[C@H](C)C[C@H](C)/C=C/C=C/C=C/1C | – | phase 1 dose escalation, item: fatigue | advanced solid tumour patients | intravenous, 12 mg weekly, grade ≥3 | – | TRAE incidence | 0% |
| COc1cc2c(c(OC)c1OC)-c1ccc(OC)c(=O)cc1[C@@H](NC(C)=O)CC2 | CHO-WBL | – | – | 0.16 µg/mL, 19 h, without S9 | – | micronuclei per binucleated cell | 0.074 |
| O=c1ccc2ccccc2o1 | NHEK | cell count | – | concentration not given, 24 h, phospholipidosis and steatosis panel | – | chance response | 0.45% |

A few entries again:
| SMILES | target or system | assay | test system | setting | how to read | quantity | result |
| --- | --- | --- | --- | --- | --- | --- | --- |
| C[C@H](NC(=O)[C@H](Cc1ccc(O)cc1)NC(=O)[C@H](CCCNC(=N)N)NC(=O)[C@H](CCCNC(=N)N)NC(=O)[C@H](CCCNC(=N)N)NC(=O)[C@@H](N)CCCNC(=N)N)C(=O)N[C@@H](CCCNC(=N)N)C(=O)N1CCC[C@H]1C(=O)N[C@@H](Cc1ccc(O)cc1)C(=O)N[C@@H](Cc1ccc(O)cc1)C(=O)N[C@@H](CCCNC(=N)N)C(=O)N[C@@H](CCCNC(=N)N)C(=O)N[C@@H](CCCNC(=N)N)C(=O)O | DF-1 | – | – | 5 µM, 24 h | reference: untreated cells | viability | 105.9 ± 0.14% |
| COC(=O)[C@@H]1[C@@H](c2ccccc2)[C@]2(c3ccc(OC)cc3)Oc3cc(OC)cc(OC)c3[C@@]23N=C(C)N[C@@]13O | transfected HepG2 | MTT | – | 24 h | – | CC50 | 97.1 nM |
| N=C(N)NCCC[C@H](NC(=O)[C@H](Cc1c[nH]c2ccccc12)NC(=O)[C@H](CCCNC(=N)N)NC(=O)[C@H](Cc1c[nH]c2ccccc12)NC(=O)[C@H](Cc1c[nH]c2ccccc12)NC(=O)[C@H](Cc1c[nH]c2ccccc12)NC(=O)[C@H](CCCNC(=N)N)NC(=O)[C@H](Cc1c[nH]c2ccccc12)NC(=O)[C@@H](N)CCCNC(=N)N)C(N)=O | HD11 macrophages | – | – | – | – | LC50 | > 512 µM |
